Published values gathered from unrelated publications.
Lines come from different studies, so protocols differ. ± marks the error that the study gave.

SMILES	target or system	test	system	conditions	how to read	quantity	result
NC(=O)N1CCC(CC(=O)N2CCC([C@H]3c4ncc(Br)cc4CCc4cc(Cl)cc(Br)c43)CC2)CC1	THP-1	pyroptotic LDH release		2 µM, 40 min, together with: LPS then nigericin		inhibition	18%
O=C(/C=C/C=C/C=C/C1CCCCC1)NC1=C[C@@](O)(/C=C/C=C/C=C/C(=O)NC2=C(O)CCC2=O)[C@@H]2O[C@@H]2C1=O	hec108	cell growth, inhibitor, CellTiter-Glo luminescence		78 h	relative to: day 0 cell count	GI50	23.5 µM
Cn1c([N+](=O)[O-])cnc1COC(N)=O	THP-1	pyroptotic LDH release		2 µM, 40 min, together with: LPS then nigericin		inhibition	-6.33%
CC(C)C[C@H](NC(=O)CNC(=O)c1cc(Cl)ccc1Cl)B1OC(=O)C(CC(=O)O)(CC(=O)O)O1	HEK293T ATF4-FLuc reporter	ATF4 reporter gene, activator, luciferase reporter				EC50	0.161 µM
CS(=O)(=O)c1ccc(-c2c(-c3ccccn3)nc3n2CCC3)cc1	Leishmania infantum		intramacrophage amastigotes, MHOM/MA(BE)/67/ITMAP263			IC50	> 64 µM
O=C(O)Cc1ccc(O)cc1	Caco-2/THP-1 co-culture			0.05 µg/mL, together with: LPS 50 ng/mL		kynurenine level	134 ± 12.2 % change
CCn1cc(-c2cc(Cn3ccoc3=N)cc3c2CCN([C@@H](C)c2cc(OC)ccn2)C3=O)c(C(F)(F)F)n1	SUM-159-PT	cell growth, inhibitor		120 h		EC50	8.41 µM
Cc1cc(O)c2c(c1)C(=O)c1cc(O)cc(O)c1C2=O	HK-2 co-cultured with HepaRG	MTT		33.33 µM, 24 h	relative to: untreated control	viability	79.8 ± 8.87%
Cn1cc(-c2ccc(-c3cncc(Cl)c3N3CCC4(CCNC4=O)CC3)cc2)cn1	COLO 205	gene expression, microarray, measured: PDE4A mRNA		concentration not given, 2 h	relative to: untreated cells	log2 fold change	2.21
C=CC(=O)Nc1cc(-n2c(=O)ccc3cnc4ccc(-c5ccc(NS(C)(=O)=O)cc5)cc4c32)ccc1C	THP-1	pyroptotic LDH release		2 µM, 40 min, together with: LPS then nigericin		inhibition	18.2%
COc1cc2ncnc(Nc3ccc(F)c(Cl)c3)c2cc1NC(=O)/C=C/CN1CCCCC1	HEK293T ATF4-FLuc reporter	ATF4 reporter gene, activator, luciferase reporter				EC50	> 9.96 µM
COc1cnc2cccc(N3CCc4c(cc(Cn5ccnc5C)cc4-c4cn(C)nc4C(F)(F)F)C3=O)c2c1	COLO792	cell growth		120 h		EC50	> 30 µM
Nc1nc(F)nc2c1ncn2[C@H]1C[C@H](O)[C@@H](CO)O1	HEK293T ATF4-FLuc reporter	ATF4 reporter gene, activator, luciferase reporter				EC50	2.96 µM
COc1cc2c(c(OC)c1OC)C(=O)c1c(cc(C)c(O)c1OC)C2=O	HK-2 co-cultured with HepaRG	MTT		66.67 µM, 24 h	relative to: untreated control	viability	65 ± 4.49%
COc1ccc(-n2nc(C(C)=O)s/c2=N\N=C(/C)c2ccc(NC(=O)c3ccc(C)cc3)cc2)cc1	MCF7			2.5 µM		viability	2.98%
CCCCOc1ccc(C(=O)CCN2CCCCC2)cc1	THP-1	pyroptotic LDH release		2 µM, 40 min, together with: LPS then nigericin		inhibition	-9.83%
CC(C)C[C@H](NC(=O)[C@@H](NC(=O)c1cccc(-c2ccccc2)n1)[C@@H](C)O)B(O)O	HEK293T ATF4-FLuc reporter	ATF4 reporter gene, activator, luciferase reporter				EC50	0.0773 µM
COc1ccc2c(C)cc(=O)oc2c1	THP-1	pyroptotic LDH release		2 µM, 40 min, together with: LPS then nigericin		inhibition	10.8%
CCn1cc(-c2cc(Cn3ccnc3)cc3c2CCN([C@H](c2cc(OC)ccn2)C2CC2)C3=O)c(C(F)(F)F)n1	COV644	cell growth		120 h		EC50	> 30 µM
OC[C@@H](O)[C@H](O)[C@@H](O)CO	THP-1	pyroptotic LDH release		2 µM, 40 min, together with: LPS then nigericin		inhibition	-6.76%
Cn1cc(-c2cc3c(N4CCN(c5ncc([C@@](C)(N)c6ccc(F)cc6)cn5)CC4)ncnn3c2)cn1	HEK293T ATF4-FLuc reporter	ATF4 reporter gene, activator, luciferase reporter				EC50	9.19 µM

A few entries again:
SMILES	target or system	test	system	conditions	how to read	quantity	result
CC(C)C[C@H](NC(=O)[C@@H](NC(=O)c1cccc(-c2ccccc2)n1)[C@@H](C)O)B(O)O	HEK293T ATF4-FLuc reporter	ATF4 reporter gene, activator, luciferase reporter				EC50	0.0773 µM
COc1ccc2c(C)cc(=O)oc2c1	THP-1	pyroptotic LDH release		2 µM, 40 min, together with: LPS then nigericin		inhibition	10.8%
